Published values from different studies.
A part holds a random share of what one study measured. Several values in a cell are separate wells, animals, samples, runs or records.
Chain of UniProt Q9P289 (whole entry, looked up): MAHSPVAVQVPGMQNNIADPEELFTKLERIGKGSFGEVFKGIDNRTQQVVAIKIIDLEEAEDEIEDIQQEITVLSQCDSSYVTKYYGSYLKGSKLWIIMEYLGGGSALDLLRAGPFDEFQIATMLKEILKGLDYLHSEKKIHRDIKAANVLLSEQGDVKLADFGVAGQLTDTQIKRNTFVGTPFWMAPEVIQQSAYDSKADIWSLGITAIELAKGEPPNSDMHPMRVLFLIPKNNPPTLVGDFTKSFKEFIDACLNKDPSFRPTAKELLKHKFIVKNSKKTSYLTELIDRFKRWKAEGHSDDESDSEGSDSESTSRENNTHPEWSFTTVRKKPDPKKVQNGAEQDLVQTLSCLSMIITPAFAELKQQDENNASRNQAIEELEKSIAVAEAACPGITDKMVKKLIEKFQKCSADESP
Chain of UniProt Q86UE8 (whole entry, looked up): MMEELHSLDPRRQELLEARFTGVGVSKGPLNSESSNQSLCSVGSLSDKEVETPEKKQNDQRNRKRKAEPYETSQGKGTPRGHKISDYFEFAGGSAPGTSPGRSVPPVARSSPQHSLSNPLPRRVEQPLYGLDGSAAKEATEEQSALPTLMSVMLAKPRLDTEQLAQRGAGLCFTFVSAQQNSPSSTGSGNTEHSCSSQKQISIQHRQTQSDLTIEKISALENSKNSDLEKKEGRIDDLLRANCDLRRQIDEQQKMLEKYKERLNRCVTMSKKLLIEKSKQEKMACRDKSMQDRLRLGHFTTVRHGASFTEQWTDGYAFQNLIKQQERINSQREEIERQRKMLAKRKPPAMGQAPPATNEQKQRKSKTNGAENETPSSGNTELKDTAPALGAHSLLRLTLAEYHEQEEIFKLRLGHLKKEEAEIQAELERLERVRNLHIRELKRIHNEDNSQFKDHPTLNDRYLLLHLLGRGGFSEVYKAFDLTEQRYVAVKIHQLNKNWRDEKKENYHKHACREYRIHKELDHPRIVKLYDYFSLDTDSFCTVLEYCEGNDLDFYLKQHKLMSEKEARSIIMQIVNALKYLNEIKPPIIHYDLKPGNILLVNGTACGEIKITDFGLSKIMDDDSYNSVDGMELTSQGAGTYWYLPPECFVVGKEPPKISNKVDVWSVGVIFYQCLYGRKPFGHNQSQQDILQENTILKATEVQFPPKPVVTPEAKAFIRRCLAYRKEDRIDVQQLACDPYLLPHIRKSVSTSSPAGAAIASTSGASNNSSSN
Chain of UniProt P42681 (whole entry, looked up): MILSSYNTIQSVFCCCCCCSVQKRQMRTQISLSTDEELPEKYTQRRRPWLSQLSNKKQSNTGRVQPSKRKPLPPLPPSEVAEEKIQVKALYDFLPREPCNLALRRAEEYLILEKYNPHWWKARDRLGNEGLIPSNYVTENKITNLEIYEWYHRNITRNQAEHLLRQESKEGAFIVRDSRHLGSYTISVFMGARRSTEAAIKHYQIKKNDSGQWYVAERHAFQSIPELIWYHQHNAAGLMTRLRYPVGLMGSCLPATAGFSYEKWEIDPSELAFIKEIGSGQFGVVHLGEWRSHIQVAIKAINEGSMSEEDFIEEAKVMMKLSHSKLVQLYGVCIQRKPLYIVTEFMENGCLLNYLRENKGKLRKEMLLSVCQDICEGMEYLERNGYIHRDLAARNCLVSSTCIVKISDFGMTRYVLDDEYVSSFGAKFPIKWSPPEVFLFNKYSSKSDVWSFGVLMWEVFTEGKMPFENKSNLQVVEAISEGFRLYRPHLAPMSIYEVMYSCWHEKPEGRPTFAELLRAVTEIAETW
Chain of UniProt Q9HAZ1 (whole entry, looked up): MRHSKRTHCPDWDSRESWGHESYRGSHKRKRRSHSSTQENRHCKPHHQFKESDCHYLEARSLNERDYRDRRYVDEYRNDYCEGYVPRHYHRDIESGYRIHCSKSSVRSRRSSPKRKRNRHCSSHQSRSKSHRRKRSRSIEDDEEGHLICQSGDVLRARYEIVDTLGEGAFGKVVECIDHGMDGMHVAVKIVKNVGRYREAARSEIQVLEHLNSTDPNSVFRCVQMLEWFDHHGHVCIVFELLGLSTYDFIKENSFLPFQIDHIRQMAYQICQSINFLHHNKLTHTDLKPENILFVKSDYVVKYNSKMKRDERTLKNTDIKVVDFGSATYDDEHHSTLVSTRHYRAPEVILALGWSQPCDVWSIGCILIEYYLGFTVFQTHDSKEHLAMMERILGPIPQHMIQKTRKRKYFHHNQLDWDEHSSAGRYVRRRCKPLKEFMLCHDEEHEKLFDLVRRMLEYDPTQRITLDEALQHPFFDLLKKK
Chain of UniProt Q9UPZ9 (whole entry, looked up): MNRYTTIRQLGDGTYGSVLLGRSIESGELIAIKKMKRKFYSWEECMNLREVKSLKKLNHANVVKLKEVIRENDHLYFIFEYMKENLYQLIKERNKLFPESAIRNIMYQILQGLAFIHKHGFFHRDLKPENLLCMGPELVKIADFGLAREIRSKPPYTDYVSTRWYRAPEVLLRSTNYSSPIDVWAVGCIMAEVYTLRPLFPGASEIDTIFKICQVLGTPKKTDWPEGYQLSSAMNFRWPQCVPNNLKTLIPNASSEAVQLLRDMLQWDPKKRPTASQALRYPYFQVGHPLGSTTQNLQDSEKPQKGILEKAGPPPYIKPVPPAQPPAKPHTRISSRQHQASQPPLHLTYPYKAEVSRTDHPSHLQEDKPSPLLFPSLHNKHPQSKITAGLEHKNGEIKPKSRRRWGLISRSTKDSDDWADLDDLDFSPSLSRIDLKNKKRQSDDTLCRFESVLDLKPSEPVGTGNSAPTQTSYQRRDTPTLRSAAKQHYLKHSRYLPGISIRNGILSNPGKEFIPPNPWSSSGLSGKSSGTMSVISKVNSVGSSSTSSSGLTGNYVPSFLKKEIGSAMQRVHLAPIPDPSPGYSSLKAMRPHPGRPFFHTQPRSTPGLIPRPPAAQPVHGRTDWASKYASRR
Chain of UniProt Q9NR20 (whole entry, looked up): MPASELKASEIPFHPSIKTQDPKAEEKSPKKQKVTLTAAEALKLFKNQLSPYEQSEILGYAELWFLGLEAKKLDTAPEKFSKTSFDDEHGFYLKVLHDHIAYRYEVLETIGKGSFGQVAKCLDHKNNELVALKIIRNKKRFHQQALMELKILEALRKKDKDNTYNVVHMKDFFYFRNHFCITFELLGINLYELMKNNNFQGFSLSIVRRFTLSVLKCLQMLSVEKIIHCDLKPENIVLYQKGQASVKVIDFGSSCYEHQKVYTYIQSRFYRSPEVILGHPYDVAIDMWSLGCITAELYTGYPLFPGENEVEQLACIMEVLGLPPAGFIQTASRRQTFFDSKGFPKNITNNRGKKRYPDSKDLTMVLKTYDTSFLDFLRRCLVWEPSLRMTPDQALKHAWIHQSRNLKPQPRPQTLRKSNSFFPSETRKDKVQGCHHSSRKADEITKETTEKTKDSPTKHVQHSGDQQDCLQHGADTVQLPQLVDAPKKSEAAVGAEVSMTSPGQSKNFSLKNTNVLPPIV

Study 1 — species: mice, male and female, formalin pain; route: intrathecal; added: formalin 5%, 20 µL intraplantar; direction: higher = more pain; quantity: licking and flinching time
SMILES: COc1cc(C(=O)OCCCN2CCCN(CCCOC(=O)c3cc(OC)c(OC)c(OCc4ccc([N+](=O)[O-])cc4)c3)CC2)cc(OC)c1OC
conditions = 100 nmol, 25-30 min after formalin; result = 6.98 a.u. and 70.7 a.u. and 21.4 a.u. and 13 a.u. and 1.37 a.u. and 4.18 a.u. and 8.81 a.u. and 65.5 a.u.
conditions = 1 nmol, 35-40 min after formalin; result = 2.2 a.u. and 65.7 a.u. and 3.88 a.u. and 25.5 a.u. and 11.9 a.u. and 27.5 a.u. and 22.2 a.u. and 21.6 a.u.
conditions = 1 nmol, 40-45 min after formalin; result = 3.38 a.u. and 6.95 a.u. and 4.01 a.u. and 8.28 a.u. and 53.2 a.u. and 33.5 a.u. and 6.48 a.u. and 43.5 a.u.
conditions = 100 nmol, 40-45 min after formalin; result = 2.77 a.u. and 1.07 a.u. and 2.25 a.u. and 3.72 a.u. and 6.11 a.u. and 0.54 a.u. and 7.37 a.u. and 18.3 a.u.
conditions = 1 nmol, 5-10 min after formalin; result = 23.5 a.u. and 37.9 a.u. and 94 a.u. and 12.9 a.u. and 10.1 a.u. and 68.8 a.u. and 60.5 a.u. and 29.2 a.u.

Study 2 — effect on: kinase activity; quantity: inhibition
Structure (SMILES): CN(C1COC1)C(C)(C)/C=C(\C#N)C(=O)N1CCC[C@H]1Cn1nc(-c2ccc(Oc3ccccc3)cc2F)c2c(N)ncnc21
target = SRPK3 (Homo sapiens, UniProt Q9UPE1); conditions = 0.1 µM; result = -1%
target = DYRK4 (Homo sapiens, UniProt Q9NR20); conditions = 1 µM; result = 4%
target = STK26 (Homo sapiens, UniProt Q9P289); conditions = 1 µM; result = 5%
target = TXK (Homo sapiens, UniProt P42681); conditions = 1 µM; result = 95%
target = LCK (Homo sapiens, UniProt P06239); conditions = 1 µM; result = 65%
target = PHKG2 (Homo sapiens, UniProt P15735); conditions = 0.1 µM; result = 6%
target = CLK4 (Homo sapiens, UniProt Q9HAZ1); conditions = 0.1 µM; result = 6%
target = DYRK1A (Homo sapiens, UniProt Q13627); conditions = 0.1 µM; result = 2%

Study 3 — tested at: 1 µM; quantity: remaining binding
Compound: CC[C@@]1(c2cccc(C(F)(F)F)c2)C2=C(Nc3n[nH]cc31)[C@H](F)C(C)(C)CC2=O (single isomer, unassigned)
target = TLK2 (Homo sapiens, UniProt Q86UE8); assay = binding, competition with immobilised ligand; result = 97%
target = BRAF (Homo sapiens, UniProt P15056, V600E); assay = binding, competition with immobilised ligand; result = 98%
target = KIT (Homo sapiens, UniProt P10721, L576P); assay = binding, competition with immobilised ligand; result = 89%
target = PRPF4B (Homo sapiens, UniProt Q13523); assay = kinase binding, KINOMEscan; scale = baseline: DMSO control; result = 77%
target = MAP3K12 (Homo sapiens, UniProt Q12852); assay = binding, competition with immobilised ligand; result = 100%
target = IRAK4 (Homo sapiens, UniProt Q9NWZ3); assay = binding, competition with immobilised ligand; result = 95%
target = PIK3CD (Homo sapiens, UniProt O00329); assay = binding, competition with immobilised ligand; result = 100%
target = Tyrosine-protein kinase ABL1, phosphorylated (ABL1, Homo sapiens, UniProt P00519, E255K); assay = kinase binding, KINOMEscan; scale = baseline: DMSO control; result = 65%
target = CILK1 (Homo sapiens, UniProt Q9UPZ9); assay = kinase binding, KINOMEscan; scale = baseline: DMSO control; result = 100%
target = STK26 (Homo sapiens, UniProt Q9P289); assay = binding, competition with immobilised ligand; result = 100%
target = LATS1 (Homo sapiens, UniProt O95835); assay = binding, competition with immobilised ligand; result = 96%
target = ROS1 (Homo sapiens, UniProt P08922); assay = binding, competition with immobilised ligand; result = 98%
target = EPHA3 (Homo sapiens, UniProt P29320); assay = binding, competition with immobilised ligand; result = 27%

Study 4 — effect on: binding; method: HTRF; tested at: 37.04 nM; quantity: inhibition
Target: Membrane-associated tyrosine- and threonine-specific cdc2-inhibitory kinase (PKMYT1, Homo sapiens, UniProt Q99640)
Construct (Q99640 1-499): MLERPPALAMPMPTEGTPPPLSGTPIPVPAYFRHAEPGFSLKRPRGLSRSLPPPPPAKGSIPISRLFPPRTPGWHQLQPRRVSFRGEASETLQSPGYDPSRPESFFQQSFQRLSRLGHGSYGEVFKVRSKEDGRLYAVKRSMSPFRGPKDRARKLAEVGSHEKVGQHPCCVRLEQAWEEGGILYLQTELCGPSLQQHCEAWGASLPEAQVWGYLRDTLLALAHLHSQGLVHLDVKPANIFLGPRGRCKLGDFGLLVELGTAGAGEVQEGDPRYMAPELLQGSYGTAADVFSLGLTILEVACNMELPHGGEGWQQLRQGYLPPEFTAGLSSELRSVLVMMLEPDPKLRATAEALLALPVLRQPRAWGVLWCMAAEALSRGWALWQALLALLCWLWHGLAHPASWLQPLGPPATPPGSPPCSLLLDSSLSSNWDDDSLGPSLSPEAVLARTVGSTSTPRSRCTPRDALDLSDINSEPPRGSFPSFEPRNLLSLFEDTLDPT
SMILES = Cc1ccc(O)c(C)c1-c1cnc2[nH]c(-c3cnc(N4CCC5(CC4)CC(N4CCN(c6cc7c(cc6F)c(N6CCC(=O)NC6=O)nn7C)CC4)CO5)nc3)cc2c1C#N (racemic); result = 94.5% and 93.8%
SMILES = Cc1ccc(O)c(C)c1-c1cnc2[nH]c(-c3cnc(N4CCC(CCN5CCN(c6ccc(N7CCC(=O)NC7=O)cc6F)CC5)CC4)nc3)cc2c1C#N; result = 97.5% and 98.8%
SMILES = Cc1ccc(O)c(C)c1-c1cnc2[nH]c(-c3cnc(N4CCC(CN5CCN(c6ccc(NC7CCC(=O)NC7=O)c(F)c6)CC5)CC4)nc3)cc2c1C#N (racemic); result = 95.9% and 95.7%
SMILES = Cc1ccc(O)c(C)c1-c1cnc2[nH]c(-c3cnc(N4CCC(CCN5CCN(c6cc7c(cc6F)c(N6CCC(=O)NC6=O)nn7C)CC5)CC4)nc3)cc2c1C#N; result = 97.9% and 98%
SMILES = Cc1ncc(-c2cc3c(N)c(-c4c(C)ccc(O)c4C)cnc3[nH]2)cn1; result = 35.8% and 37.4%
SMILES = Cc1ccc(O)c(C)c1-c1cnc2[nH]c(-c3cnc(N4CCC(CN5CCN(c6c(F)cc(NC7CCC(=O)NC7=O)cc6F)CC5)CC4)nc3)cc2c1C#N (racemic); result = 66.9% and 67.5%

Study 5 — quantity: body weight
SMILES: Cc1ncsc1-c1ccc(C(CO)NC(=O)C2CC(O)CN2C(=O)C(C(C)C)n2cc(-c3ccc(COc4c(-c5c(C)c(F)cc6[nH]ncc56)c(C5CC5)cc5c(N6CC7CC6CN7)nc(OC6CCOCC6)nc45)cc3)nn2)cc1 (stereo not shown)
system = mouse, PK-59 xenograft; conditions = 3 mg/kg, day 0; result = 23 g and 24.1 g and 23.7 g
system = mouse, PK-59 xenograft; conditions = subcutaneous, 30 mg/kg once daily, day 1; result = 19.9 g and 21.3 g and 18.9 g and 17.8 g
system = mouse, A-375 xenograft; conditions = sc, 30 mg/kg once daily, day 6; result = 17.9 g and 18.4 g and 18.9 g and 19.5 g
system = mouse, PK-1 xenograft; conditions = 30 mg/kg twice weekly, day 0; result = 24.9 g
system = mouse, HT-29 xenograft; conditions = sc, 30 mg/kg once daily, day 13; result = 20 g and 19.1 g and 21.5 g and 17 g and 18.5 g
system = mouse, PK-59 xenograft; conditions = subcutaneous, 30 mg/kg once daily, day 18; result = 20 g and 19.7 g and 18.4 g and 18 g
system = mouse, PK-59 xenograft; conditions = 1 mg/kg, day 21; result = 26 g and 32.3 g

Study 6 — effect on: thermal unfolding; method: differential scanning fluorimetry; tested at: 5.5 µM; direction: higher = more unfolded; quantity: SYPRO Orange fluorescence
Compound: C[C@@H]1CN(c2ccc(-c3cc(C(=O)NCCOCCOCCOCCOCCNC(=O)/C=C/c4[nH]cc(C(=O)N[C@@H](CC(N)=O)c5ccc(F)c(Cl)c5)c4-c4ccc(Cl)cc4F)ccc3F)cc2NC(=O)c2c[nH]c(=O)cc2C(F)(F)F)C[C@H](C)N1C
WDR5: WD repeat-containing protein 5 (WDR5, Homo sapiens, UniProt P61964)
DCAF1: DDB1- and CUL4-associated factor 1 (DCAF1, Homo sapiens, UniProt Q9Y4B6)
Chain of UniProt Q9Y4B6 (whole entry, looked up): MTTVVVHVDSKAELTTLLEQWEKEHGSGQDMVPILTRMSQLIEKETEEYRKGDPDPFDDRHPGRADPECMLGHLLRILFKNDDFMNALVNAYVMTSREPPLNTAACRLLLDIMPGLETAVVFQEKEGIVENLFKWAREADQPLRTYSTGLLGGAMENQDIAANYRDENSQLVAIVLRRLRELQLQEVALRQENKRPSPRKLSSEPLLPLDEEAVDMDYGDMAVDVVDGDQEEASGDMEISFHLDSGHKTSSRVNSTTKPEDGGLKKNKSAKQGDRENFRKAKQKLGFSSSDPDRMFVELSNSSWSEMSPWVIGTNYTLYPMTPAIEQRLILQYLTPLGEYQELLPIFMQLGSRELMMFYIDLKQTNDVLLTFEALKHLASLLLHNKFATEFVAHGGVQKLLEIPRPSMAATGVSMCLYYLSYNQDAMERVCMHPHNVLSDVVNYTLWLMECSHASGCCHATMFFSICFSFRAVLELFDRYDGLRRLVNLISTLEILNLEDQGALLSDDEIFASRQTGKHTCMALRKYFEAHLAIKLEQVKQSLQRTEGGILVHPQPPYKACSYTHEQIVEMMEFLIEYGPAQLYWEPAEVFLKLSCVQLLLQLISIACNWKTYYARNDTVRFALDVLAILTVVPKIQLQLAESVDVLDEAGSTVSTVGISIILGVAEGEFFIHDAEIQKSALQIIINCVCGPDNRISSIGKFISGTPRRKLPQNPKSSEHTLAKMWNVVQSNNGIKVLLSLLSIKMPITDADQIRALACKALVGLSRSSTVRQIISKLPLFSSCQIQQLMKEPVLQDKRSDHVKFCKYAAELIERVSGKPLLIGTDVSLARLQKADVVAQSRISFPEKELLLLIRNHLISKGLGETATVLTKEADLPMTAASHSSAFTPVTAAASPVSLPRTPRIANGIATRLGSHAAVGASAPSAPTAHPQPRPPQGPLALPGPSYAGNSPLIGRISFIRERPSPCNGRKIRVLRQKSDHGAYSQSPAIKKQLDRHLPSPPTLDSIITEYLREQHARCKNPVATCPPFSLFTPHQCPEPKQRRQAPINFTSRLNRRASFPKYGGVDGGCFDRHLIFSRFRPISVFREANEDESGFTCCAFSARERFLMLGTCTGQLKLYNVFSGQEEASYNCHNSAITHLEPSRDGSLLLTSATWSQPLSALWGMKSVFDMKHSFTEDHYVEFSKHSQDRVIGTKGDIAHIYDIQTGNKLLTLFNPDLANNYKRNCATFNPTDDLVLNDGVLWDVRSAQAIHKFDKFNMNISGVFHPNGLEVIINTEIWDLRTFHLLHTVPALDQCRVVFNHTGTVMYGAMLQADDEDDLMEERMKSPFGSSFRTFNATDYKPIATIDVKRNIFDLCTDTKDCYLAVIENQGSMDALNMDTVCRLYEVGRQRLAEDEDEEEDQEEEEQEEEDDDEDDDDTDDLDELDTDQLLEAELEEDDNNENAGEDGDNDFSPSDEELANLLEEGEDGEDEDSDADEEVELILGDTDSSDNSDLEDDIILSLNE
target = WDR5; conditions = 79.81 °C; result = 39900 a.u.
target = DCAF1; conditions = 76.41 °C; result = 48500 a.u.
target = WDR5; conditions = 72.21 °C; result = 19800 a.u.
target = WDR5; conditions = 78.81 °C; result = 36900 a.u.
target = WDR5; conditions = 91.21 °C; result = 49500 a.u.
target = DCAF1; conditions = 65.81 °C; result = 59400 a.u.
target = WDR5; conditions = 26.8 °C; result = 13000 a.u.
target = WDR5; conditions = 92.41 °C; result = 48100 a.u.

Study 7 — cell line: U-87 MG; tested at: concentration not given; baseline: DMSO; quantity: log2 fold change
Compound: CCN1/C(=C/C=C2\CCCC(/C=C/C3=[N+](CC)c4ccccc4C3(C)C)=C2NCCCCCCCCN2CCC(Nc3nc4ccccc4n3Cc3ccc(F)cc3)CC2)C(C)(C)c2ccccc21
assay = item: BPIFC mRNA; result = 6.4
assay = item: PLXDC1 mRNA; result = -1.53
assay = item: SH3RF1 mRNA; result = 0.96
assay = item: DBF4 mRNA; result = -1.34
assay = item: MOB2 mRNA; result = 0.848
assay = item: HJURP mRNA; result = -2.06
assay = item: PPP4R2 mRNA; result = 0.812
assay = item: NEIL3 mRNA; result = -1.88
assay = item: LPAR5 mRNA; result = -3.54
assay = item: PTPRJ mRNA; result = -1.04
assay = item: PRKAR2B mRNA; result = -1.05

A few entries again (study 6):
target = WDR5; conditions = 91.21 °C; result = 49500 a.u.
target = DCAF1; conditions = 76.41 °C; result = 48500 a.u.
target = WDR5; conditions = 92.41 °C; result = 48100 a.u.
target = WDR5; conditions = 26.8 °C; result = 13000 a.u.
target = WDR5; conditions = 79.81 °C; result = 39900 a.u.
target = WDR5; conditions = 72.21 °C; result = 19800 a.u.
target = WDR5; conditions = 78.81 °C; result = 36900 a.u.
target = DCAF1; conditions = 65.81 °C; result = 59400 a.u.
